Experimental data from different studies.
Compare with care: the assays were run in different laboratories. ± marks the error that the study gave.
Method: steady-state kinetics
B1: LYPLA2 (Homo sapiens, UniProt O95372); chain MCGNTMSVPLLTDAATVSGAERETAAVIFLHGLGDTGHSWADALSTIRLPHVKYICPHAPRIPVTLNMKMVMPSWFDLMGLSPDAPEDEAGIKKAAENIKALIEHEMKNGIPANRIVLGGFSQGGALSLYTALTCPHPLAGIVALSCWLPLHRAFPQAANGSAKDLAILQCHGELDPMVPVRFGALTAEKLRSVVTPARVQFKTYPGVMHSSCPQEMAAVKEFLEKLLPPV
B2: FDC1 (Saccharomyces cerevisiae, UniProt Q03034); chain MRKLNPALEFRDFIQVLKDEDDLIEITEEIDPNLEVGAIMRKAYESHLPAPLFKNLKGASKDLFSILGCPAGLRSKEKGDHGRIAHHLGLDPKTTIKEIIDYLLECKEKEPLPPITVPVSSAPCKTHILSEEKIHLQSLPTPYLHVSDGGKYLQTYGMWILQTPDKKWTNWSIARGMVVDDKHITGLVIKPQHIRQIADSWAAIGKANEIPFALCFGVPPAAILVSSMPIPEGVSESDYVGAILGESVPVVKCETNDLMVPATSEMVFEGTLSLTDTHLEGPFGEMHGYVFKSQGHPCPLYTVKAMSYRDNAILPVSNPGLCTDETHTLIGSLVATEAKELAIESGLPILDAFMPYEAQALWLILKVDLKGLQALKTTPEEFCKKVGDIYFRTKVGFIVHEIILVADDIDIFNFKEVIWAYVTRHTPVADQMAFDDVTSFPLAPFVSQSSRSKTMKGGKCVTNCIFRQQYERSFDYITCNFEKGYPKGLVDKVNENWKRYGYK
B3: protein (UniProt M4ZR24); chain MNEIGTTWAEGTSERVIRLLTDKRAGRPMSGPDIEGLVKDFTAGSVPDYQMASWLATVACAGLSAEELTALTAAYVDSGERLSLSSSRRPVADKHSTGGVGDKTTLVVAPVVAACGIGVGKVTGRGLGFMGGTVDKLESIPGLDLELSGSALSAQVADLGLAVTGQSPSLVPGDRMTYALRDVTGTVDSIPLIAASIMSKNTKGIAVRCNSIVLDVKYGDGAVLPDRAVATELARTMLELGRSFDLPTTAVISSMEQPLGYAVGNGLEVREAIIALSGTYVEDLTELAITISALMISTADSAVDHDRARDRVREVLSDGSALRMFRAFVARQGGDVGFVDDPSRLETAPHRLVVTATEAGHVARIAARRIGEAALRVGAGRLVYGAPIDHGAGIVLSRRIGDSVAEGEPLATLHGSDYDQLESLADVVRGCFDISERPPGRPDVIVDVLRQGDAG
B4: sacB S422A (Priestia megaterium, UniProt D5DC07); chain KGNDSKDFNNSYGISHITRDNMVKIPQQQNSDQFKVPAFDESTIKNIASAKGKNASGNTIDLDVWDSWPLQNADGTVATYHGYQIVFALAGDPKDSNDTSVYLFYKKAGDKSIDSWKNAGRVFKDSDKFVPNDPHLKNQTQEWSGSGTLTKDGKVRLFYTDYSGKQYGKQTLTTAQVNMSQPNDNTLKVDGVEDYKSIFDGDGKIYQTVQQFIDEGGYDTGDNHTLRDPHYIEDNGHKYLVFEANTGTEDGYQGEDSLYNRAYYGGNNPFFQSEKKKLLEGSNKEKASLANGALGIIELNDDYTLKKVMKPLITSNTVTDEIERANIFKKDGKWYLFTDSRGSKMTIDGIGQDDVYMLGYVSNTLTGKYKPLNDTGLVLHMDLDPNDKTFTYAHFAVPQTKGDNVVITSYMTNRGFYEDNHSTFAPSFLVNIDGSKTSVVKDRVLEQGQLTVDED
B5: enzyme (Triticum aestivum, UniProt A0A6J4BJM5); chain MPATQLPAGEAWDRRRELQAFDDTKAGVKGLVDAGVTALPPIFRHSPESLEGITSSNHVTGAIPTVDLSAARREDTVALVRRAAGTVGFFQVVNHGVPAELMAGMLEGVRRFNEGPAEAKQAIYSRDQARKVRFASNFDLFSSAAANWRDTLFFHLAPDPAPSQELPEAVRDVVTEYGKAVTKVALSVLELLSESLGLSSDHLRDMGCAENLNAVCQYYPPCPEPYLTWGTKRHTDPGFLTVLLQDGMGGLQVLVDHKTWVDVPPVPGAFIINIGDLLQLVSNDQFRSVEHRVLANKSKDTARVSVASFFNTDMERSTRLYGPITDGRNPPIYRSVTARDFIATFNRIGLDGRSLDHYRLDQHTPTPAVEGCE
B6: UCK2 (Homo sapiens, UniProt Q9BZX2); chain MAGDSEQTLQNHQQPNGGEPFLIGVSGGTASGKSSVCAKIVQLLGQNEVDYRQKQVVILSQDSFYRVLTSEQKAKALKGQFNFDHPDAFDNELILKTLKEITEGKTVQIPVYDFVSHSRKEETVTVYPADVVLFEGILAFYSQEVRDLFQMKLFVDTDADTRLSRRVLRDISERGRDLEQILSQYITFVKPAFEEFCLPTKKYADVIIPRGADNLVAINLIVQHIQDILNGGPSKRQTNGCLNGYTPSRKRQASESSSRPH
B7: enzyme (Corynebacterium glutamicum, UniProt Q8NT37); chain MSSGRTVPTRSHGLGKEGVSTTGASQVEFGDPELTARINDAMVQVEELLHTELSSGEDFLVDIVMHLTRAGGKRFRPMFALLASEFGEKPLSENVIKAAVVVEITHLATLYHDDVMDEASMRRGVPSANARWDNSVAILAGDILLAHASGLMSQLGTDTVAHFAETFGELVTGQMRETVGPRDTDPIEHYTNVIREKTGVLIASAGYLGAMHAGAAPEHIDALKNFGAAVGMIFQIVDDIIDIFSETHESGKTPGTDLREGVFTLPVLYALREDTPVGAELRDILTGPLEDDETVNHVLELLSQSGGRQAALDEVYRYMDIANAELDRLPDSTVKEALRNLATFTVKRVG
B8: enzyme (Acinetobacter baumannii, UniProt D0CBC8); chain MALVLDGRALAKQIEENLLVRVEALKAKTGRTPILATILVGDDGASATYVRMKGNACRRVGMDSLKIELPQETTTEQLLAEIEKLNANPDVHGILLQHPVPAQIDERACFDAISLAKDVDGVTCLGFGRMAMGEAAYGSATPAGIMTILKENNIEIAGKHAVVVGRSAILGKPMAMMLLQANATVTICHSRTQNLPELVKQADIIVGAVGKAELIQKDWIKQGAVVVDAGFHPRDGGGVGDIQLQGIEEIASAYTPVPGGVGPMTITTLIRQTVEAAEKALG
B9: HCT R356D (Coleus scutellarioides, UniProt E8ZAP2); chain MKIHVRDSTLVRPSAATPAVSLWNSNVDLVVPNFHTPSVYFYRPSGADNFFDTAVMKAALGRALVSFYPMAGRLKRDEDGRVEIDCNAEGVLFVEAESDGTVDDYGDFAPSLELRRLIPAVDYSQGISAYPLLVLQVTFFKCGGVSLGVGMQHHAADGFSGLHFINTWSDMARGLDITLPPFIDRTLLSARDPPQPQFKHVEYQPPPAMKTYEPAETVVSIFKLTKDQLTTLKAKSKEDGNTTTYSSYEMLSGHVWRCTCLARGLPEEQETKLYIATDGRSRLQPQLPPGYFGNVIFTATPLAVAGDLGSKPVWYAASKIHDALARMDNDYLRSALDFLELQPDLKALVRGAHTFDCPNLGITSWVRLPIHDADFGWGRPIFMGPGGIAYEGLSFVLPSPTNDGSLSVAISLQAEHMKLFEKLLYQI
B10: CoA persulfide reductase CDR-RHD (Enterococcus faecalis, UniProt A0ACD6TF65); chain MKIVIIGGVAGGMSAATRLRRLMEDAEIVVMEKGPFVSFANCGLPYYVSGEIAEREQLLVQTPEALKARFNLDVRPHHEVVAIDPIEKVITVKHETEILTEHYDKLILSPGAKPFVPPITGLAEAKNVFSLRNVPDLDQIMTALTPETKRAVVIGAGFIGLEMAENLQKRGLEVTLVEKAPHVLPPLDEEMAAFVKAELSKNNVQVITGQSAVAFEEEGQVIRLEDGQTLASDLTILSVGVQPENTLAVEAGVATGLRGGIVVDEHYQTNQPDIYAVGDAIVVKQQITQEDALISLASPANRQGRQVADVIAGLERKNQGSIGTAIVRVFDLTAASTGLSERAAKAAGLTTAVVHISGKDHAGYYPGATDLQLKLVFHPTTGEIYGAQGIGAKGVDKRIDILATAIKGQLTIFDLPELEFTYAPPFGSAKDPVNMLGYAAMNLVEGLSENVQWYELSNELAKGAVLLDVRNPAERANGQFKNAVSIPLNELRERLEELDKSTEYIVSCHSGLRSYIAERMLKQAGISAKNLDGAFALYRMVKPEELENV
B11: PRXC1A (Armoracia rusticana, UniProt P00433); chain QLTPTFYDNSCPNVSNIVRDTIVNELRSDPRIAASILRLHFHDCFVNGCDASILLDNTTSFRTEKDAFGNANSARGFPVIDRMKAAVESACPRTVSCADLLTIAAQQSVTLAGGPSWRVPLGRRDSLQAFLDLANANLPAPFFTLPQLKDSFRNVGLNRSSDLVALSGGHTFGKNQCRFIMDRLYNFSNTGLPDPTLNTTYLQTLRGLCPLNGNLSALVDFDLRTPTIFDNKYYVNLEEQKGLIQSDQELFSSPNATDTIPLVRSFANSTQTFFNAFVEAMDRMGNITPLTGTQGQIRLNCRVVNSNS
B12: LigI D246A (Sphingobium sp. SYK-6, UniProt O87170); chain TNDERILSWNETPSKPRYTPPPGAIDAHCHVFGPMAQFPFSPKAKYLPRDAGPDMLFALRDHLGFARNVIVQASCHGTDNAATLDAIARAQGKARGIAVVDPAIDEAELAALHEGGMRGIRFNFLKRLVDDAPKDKFLEVAGRLPAGWHVVIYFEADILEELRPFMDAIPVPIVIDHMGRPDVRQGPDGADMKAFRRLLDSREDIWFKATCPDRLDPAGPPWDDFARSVAPLVADYADRVIWGTAWPHPNMQDAIPDDGLVVDMIPRIAPTPELQHKMLVTNPMRLYWSEEM
B13: enzyme I209A (Thermococcus kodakarensis, UniProt Q5JID5); chain MLYVEILGNLPEMARDEVKAMLELGGGEIIGQDYLFLKVDAGEKAFPFLDRLGLAHEYGLLLVEADSVEELLQKAGEVEWPIKGAFKVDTETMANCRHDVLDLPRKLGAVIHAQGFRVNLSKPDTVVRVYCGERLYAGIRLRYFDPKDFEKRKAHHRPFFRPISLHPRVSRALVNLTKATREILDPFMGAGGILIEAGLLGLRVYGVDARPEMVEGAETNLKHYGVRDYTLKLGDATRLEDLFPDKKFEAVATDPPYGTAATLAGRKRDELYRKALRSIYNVLEDGGRLAIAFPTDFNGKAEAEAVGFRTLGRYYQRVHKSLERYFYVFEK
Chain of UniProt P10724 (whole entry, looked up): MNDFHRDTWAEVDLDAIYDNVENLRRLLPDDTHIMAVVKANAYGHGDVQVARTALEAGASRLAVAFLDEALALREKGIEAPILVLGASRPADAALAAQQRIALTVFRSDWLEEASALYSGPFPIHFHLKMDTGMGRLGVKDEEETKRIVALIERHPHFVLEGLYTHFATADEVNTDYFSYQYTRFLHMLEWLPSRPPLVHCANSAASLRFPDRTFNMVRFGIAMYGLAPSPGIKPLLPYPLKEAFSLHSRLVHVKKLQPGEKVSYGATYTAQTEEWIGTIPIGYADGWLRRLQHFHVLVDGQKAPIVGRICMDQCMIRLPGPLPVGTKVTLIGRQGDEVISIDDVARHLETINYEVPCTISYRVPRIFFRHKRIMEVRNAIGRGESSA
Chain of UniProt P69848 (whole entry, looked up): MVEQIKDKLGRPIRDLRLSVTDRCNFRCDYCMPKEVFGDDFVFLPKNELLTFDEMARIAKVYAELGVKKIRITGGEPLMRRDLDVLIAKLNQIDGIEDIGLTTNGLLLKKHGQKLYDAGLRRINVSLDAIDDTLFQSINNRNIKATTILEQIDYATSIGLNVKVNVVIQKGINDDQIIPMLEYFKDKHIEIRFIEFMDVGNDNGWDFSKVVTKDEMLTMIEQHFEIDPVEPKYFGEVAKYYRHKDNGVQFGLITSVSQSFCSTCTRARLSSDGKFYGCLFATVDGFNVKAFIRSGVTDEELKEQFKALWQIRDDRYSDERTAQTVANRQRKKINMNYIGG
Chain of UniProt Q8KN33 (whole entry, looked up): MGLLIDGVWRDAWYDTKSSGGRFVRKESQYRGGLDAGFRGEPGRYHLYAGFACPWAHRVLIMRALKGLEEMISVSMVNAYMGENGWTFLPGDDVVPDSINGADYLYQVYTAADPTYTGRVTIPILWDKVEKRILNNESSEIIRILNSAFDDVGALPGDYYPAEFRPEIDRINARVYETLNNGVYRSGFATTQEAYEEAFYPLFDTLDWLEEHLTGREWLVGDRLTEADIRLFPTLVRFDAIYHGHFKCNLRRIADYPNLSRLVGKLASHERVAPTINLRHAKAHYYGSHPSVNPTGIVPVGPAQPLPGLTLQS

Substance	substrate	conditions	kcat
B1 (LYPLA2)	CN(C)c1ccc(/N=N/c2ccc(C(=O)NCCCn3cc(CCCCCCCCCCCCCCCC(=O)SC[C@H](NC(=O)c4cc5ccc(O)cc5oc4=O)C(=O)N4CCOCC4)nn3)cc2)cc1	pH 7.4, 37 °C	0.044 ± 0.003 s⁻¹
pcpF (Sphingobium chlorophenolicum, UniProt Q8KN33)	OCCS	pH 6.5, with: GS-TriCH, ascorbic acid 2 mM	1.09 ± 0.06 s⁻¹
B2 (FDC1)	COc1cc(/C=C/C(=O)O)ccc1O	pH 7, 25 °C, apparent kcat, incomplete cofactor occupancy, apparent	3.8 ± 0.3 s⁻¹
B3 (protein)	O=c1ccn([C@@H]2O[C@H](CO)[C@@H](O)[C@H]2O)c(=O)[nH]1	phosphorolysis, single substrate, with: phosphate	0.015 ± 0.00167 s⁻¹
Alanine racemase (Geobacillus stearothermophilus, UniProt P10724)	C[C@H](N)C(=O)O	pH 8.9, 25 °C, L to D direction	1740 s⁻¹
B4 (sacB S422A)	OC[C@H]1O[C@@](CO)(O[C@H]2O[C@H](CO)[C@@H](O)[C@H](O)[C@H]2O)[C@@H](O)[C@@H]1O	pH 6.6	97.9 ± 4 s⁻¹
B5 (enzyme)	O=C1[C@@H](O[C@@H]2O[C@H](CO)[C@@H](O)[C@H](O)[C@H]2O)Oc2ccccc2N1O	pH 7.2, 30 °C	0.433 s⁻¹
B6 (UCK2)	Nc1ccn([C@@H]2O[C@H](CO)[C@@H](O)[C@H]2O)c(=O)n1	pH 7.2, 25 °C, KCl 100 mM, with: ATP 100–200 µM	4.3 ± 0.2 s⁻¹
B7 (enzyme)	C=C(C)CCO[P@@](=O)(O)OP(=O)(O)O	pH 7.6, 37 °C	0.01 s⁻¹
B8 (enzyme)	NC(=O)c1ccc[n+]([C@@H]2O[C@H](COP(=O)(O)OP(=O)(O)OC[C@H]3O[C@@H](n4cnc5c(N)ncnc54)[C@H](OP(=O)(O)O)[C@@H]3O)[C@@H](O)[C@H]2O)c1	pH 7.3, 27 °C, cofactor varied	84.7 ± 2 s⁻¹
B9 (HCT R356D)	NCCc1ccc(O)c(O)c1	pH 8, pseudo-first-order, with: p-coumaroyl CoA	1.44 ± 0.05 s⁻¹
B10	CC(C)(COP(=O)(O)OP(=O)(O)OC[C@H]1O[C@@H](n2cnc3c(N)ncnc32)[C@H](O)[C@@H]1OP(=O)(O)O)[C@@H](O)C(=O)NCCC(=O)NCCSS	pH 8, 25 °C, NaCl 200 mM, with: FAD 100 nM, NADH 100 µM	4.9 ± 0.4 s⁻¹
moaA (Staphylococcus aureus, UniProt P69848)	C[S+](CC[C@H](N)C(=O)O)C[C@H]1O[C@@H](n2cnc3c(N)ncnc32)[C@H](O)[C@@H]1O	pH 7.6, 25 °C, with: GTP, dithionite, MgCl2 1 mM	0.000717 ± 6.67e-05 s⁻¹
B11 (PRXC1A)	CCn1c(=NN=c2sc3cc(S(=O)(=O)O)ccc3n2CC)sc2cc(S(=O)(=O)O)ccc21	apparent	592 ± 18 s⁻¹
butyrylcholinesterase (Sus scrofa, UniProt A0A4X1VEU5)	CC(=O)SCC[N+](C)(C)C	pH 8, 22 °C	1030 ± 50 s⁻¹
B12 (LigI D246A)	O=C(O)c1cc(C(=O)O)oc(=O)c1	pH 8.25, 30 °C	0.0013 ± 0.0001 s⁻¹
B13 (enzyme I209A)	C[S+](CC[C@H](N)C(=O)O)C[C@H]1O[C@@H](n2cnc3c(N)ncnc32)[C@H](O)[C@@H]1O	pH 7.5, 50 °C, apparent	0.00333 ± 0.000667 s⁻¹

Excerpt of the above:
Substance	substrate	conditions	kcat
B13 (enzyme I209A)	C[S+](CC[C@H](N)C(=O)O)C[C@H]1O[C@@H](n2cnc3c(N)ncnc32)[C@H](O)[C@@H]1O	pH 7.5, 50 °C, apparent	0.00333 ± 0.000667 s⁻¹
B11 (PRXC1A)	CCn1c(=NN=c2sc3cc(S(=O)(=O)O)ccc3n2CC)sc2cc(S(=O)(=O)O)ccc21	apparent	592 ± 18 s⁻¹
